Assay results collected from several papers.
A part holds a random share of what one study measured. Substitutions count along the parent as printed.

Study 1 — target: CCNB2, cyclin fold, Cln2 fusion (human); technique: yeast growth competition, sequencing; sample: yeast; setting: weak parent motif; reference: not given; direction: higher = stronger binding
Starting sequence: PKN2 docking peptide (human); VSAVRKLDFSDTM
| Change | normalised enrichment score |
| --- | --- |
| D8L | -0.0261 |
| L7M | 0.191 |
| A3H | 0.295 |
| T12L | 1.08 |
| L7G | -0.186 |
| D8F | -0.107 |
| T12M | 0.561 |
| D8H | 0.497 |
| D8A | 0.392 |
| R5W | -0.186 |
| R5N | -0.34 |
| F9W | 0.609 |
| F9N | 0.0476 |
| S10F | -0.142 |
| D11S | 0.118 |
| V4C | 1.21 |
| A3G | -0.249 |
| D11R | -0.0941 |
| D11A | 0.485 |
| D8T | -0.287 |
| A3D | -0.361 |
| K6F | -0.00357 |
| T12P | 0.732 |
| F9Y | -0.21 |
| L7T | 0.221 |

Study 2 — technique: RNA Bind-n-Seq; form: RNA; sample: in vitro; concentration: 1 µM; setting: whole 134-nt RNA, ends assumed; together with: 150 mM KCl; reference: input library; direction: higher = stronger binding
Target: Ras GTPase-activating protein-binding protein 1, C-terminal RGG region (G3BP1, Homo sapiens, UniProt Q13283)
UniProt Q13283, sequence (whole entry, looked up): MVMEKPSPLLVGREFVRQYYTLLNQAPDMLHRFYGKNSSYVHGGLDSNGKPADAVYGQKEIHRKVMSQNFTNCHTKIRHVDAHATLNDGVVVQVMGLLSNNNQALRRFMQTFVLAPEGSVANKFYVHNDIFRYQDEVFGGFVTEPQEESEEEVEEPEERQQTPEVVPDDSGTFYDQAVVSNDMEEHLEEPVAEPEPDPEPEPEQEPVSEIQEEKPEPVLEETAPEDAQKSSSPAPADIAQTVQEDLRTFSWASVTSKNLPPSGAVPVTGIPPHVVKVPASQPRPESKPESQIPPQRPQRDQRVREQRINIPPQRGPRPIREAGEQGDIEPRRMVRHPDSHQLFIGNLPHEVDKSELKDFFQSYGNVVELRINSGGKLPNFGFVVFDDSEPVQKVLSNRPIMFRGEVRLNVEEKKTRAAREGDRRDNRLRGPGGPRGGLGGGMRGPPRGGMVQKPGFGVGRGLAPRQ
All sequences stand within: GGGAGUUCUACAGUCCGACGAUC … UGGAAUUCUCGGGUGUCAAGG
| Oligonucleotide | log2 enrichment |
| --- | --- |
| CACAGACAACACGCACCCACACAGACACAGAGGGAAGGCGUUGGGAUGGGGACAGGGUGCACAGCAGGGCGGGGUAGGACCCCAGCCCCU | -0.791 |
| CCUCAAGUCCUGUGCUACACAUCGUAUGUACCGAAUCGGGUUGGUUGGGUUGGAAAGUAUUAUGUUACGCCGUUCGGAUCUGCACUUCCA | -0.802 |
| AGUCCUGUGCUACACAUCGUAUGUACCGAAUCGGGGAAAAGGGAAAAGGGGAAAAGGAAAGUAUUAUGUUACGCCGUUCGGAUCUGCACU | -0.908 |
| CAUCAAAAUAGCUACAAACCAUACUAAAUUAUUCCAUUUGCAACUUAUCCCCAACAGGUAUGUUCUAAAAAUAGUUUUUUUUUGUCAUUU | -0.45 |
| UAACUUUAAAGGAGGAUCUGAUGGAUAUGGCAGUGGACGUGGAUUUGGGGAUGGCUAUAAUGGGUAUGGAGGAGGACCUGGAGGUGGCAA | -1.34 |
| UGGGAGGUGGAUUUUGUUCAUUUUUUUAGCUCAUUUCCAGGGGUGGGAAUUUUUUUUUAAUAUGUGUCAUGAAUAAAGUUGUUUUUGAAA | 1.98 |
| CCUGUGCUACACAUCGUAUGUACCGAAUCGGGUUUUUUUGGUUUUUUUGGGUUUUUUUGGAAAGUAUUAUGUUACGCCGUUCGGAUCUGC | -1.28 |
| UUAUGGAGUUUGGCCCUGAGGACAUGCUGCUGGGCAUGGAUGAGGCUGAAGAUGAUGAGGACCUGGAGGCUGAGCUGCUGGCUCUCACAG | -1.27 |
| CAACGUUGAAAUGGAUUGGGUGUUGAAGCAUACUGGUCCAAAUAGUCCUGACACGGCCAAUGAUGGCUUUGUACGGCUUAGAGGACUUCC | -1.93 |
| GCAGGAAGUAAAAACAAAUGGAAAUGCUUCGGAUAGUGGCAGGGGUGGGGGUAAAUAAGGAAAGGGUGGGAUGGGAGUGGGUAAAGAGUU | 1.31 |
| CCUCAAGUCCUGUGCUACACAUCGUAUGUACCGAAUCGGGUUGGUUGGUUGGAAAGUAUUAUGUUACGCCGUUCGGAUCUGCACUUCCAG | -0.613 |
| UCCUGUGCUACACAUCGUAUGUACCGAAUCAAACCCCCAAAUUUUUUUAAAUUUUUAAAAAAGUAUUAUGUUACGCCGUUCGGAUCUGCA | -0.638 |
| UGUGCUACACAUCGUAUGUACCGAAUCGGGGUUUUUUUGGGGAAAAAAAGGGGAAAAAGGGGAAAGUAUUAUGUUACGCCGUUCGGAUCU | 0.0101 |
| AGUCCUGUGCUACACAUCGUAUGUACCGAAUCGGGGUGGGGAAAAAGGGGAAAGGGGAAAGUAUUAUGUUACGCCGUUCGGAUCUGCACU | 2.53 |

Study 3 — technique: RNA Bind-n-Seq; form: RNA; sample: in vitro; concentration: not given; reference: input RNA pool; direction: higher = stronger binding
Target: RING finger protein unkempt homolog, zinc fingers 1-6, GST-SBP tag (UNK, Homo sapiens, UniProt Q9C0B0, residues 30-357)
Setting: RNA with constant flanks, human and mouse sites, ends assumed
All sequences stand within: GGGAGUUCUACAGUCCGACGAUC … CAACAGAGGAUUGAGCAUCA
Construct (chain): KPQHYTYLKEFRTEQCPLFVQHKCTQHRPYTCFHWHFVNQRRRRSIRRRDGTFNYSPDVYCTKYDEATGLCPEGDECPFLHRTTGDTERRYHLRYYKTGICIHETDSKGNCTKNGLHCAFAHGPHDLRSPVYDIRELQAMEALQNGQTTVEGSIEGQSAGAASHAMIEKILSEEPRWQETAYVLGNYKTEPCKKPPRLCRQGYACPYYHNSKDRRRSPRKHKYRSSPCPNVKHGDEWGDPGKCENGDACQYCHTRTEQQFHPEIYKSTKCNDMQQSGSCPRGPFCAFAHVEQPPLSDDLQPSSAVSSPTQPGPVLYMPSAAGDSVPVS
| Oligonucleotide | bound/input enrichment |
| --- | --- |
| CUUGGGGGCCUAAAGAGACCCCCGUCCUGCCUCCUUUCUUUCUCUGUCUCUUCCUUCCUUUUAGUCUUUUUCAUCCUCUUCUCUUUCCACCAACCCUCCUGCAUCCUUGCCUUGCAGCGU | 5.37 ratio |
| UAAUCUCAUUCCUUUUGAUUGUUAAUGUUUUUGUUCAGUUGUUGUUGUUUGUUGGGUUUUUGUUUCUGUUGGUUAUUUUUGGACACUGGUGGCUCAGCAGUCUAUUUAUAUUUUCUAUAU | 0.879 ratio |
| CCUGAAAAUGUCUAUAGUGUGCACUUCGAAAAAGAACAUAAAGCUGAGAAAGUCCCAGCAGUAGCCAACUACAUUAUGAAAAUACACAAUUUUACUAGCAAAUGCCUCUACUGUAAUCGC | 8.36 ratio |
| AAAGUGGACGAACGAGUGCGACAGCUCACCGAGGUGCUUGUGUUUGAGCUCUCCCCGGAUCGCUCUCUGAGAGGCGGCCCCAAGGCUACUCGGAGAGCCGUGUCUCAGCUGAUCCGGCUG | 0.0568 ratio |
| UCAAUUCUUCAAGAAAAAUUGCAAGAAAUCAGAAAGCAUUAUCUGUCUUUAAAAUCUGAAGUAGCUUCCAUUGAUAGGAGGAGAAAACGUUUAAAGAAGAAAGAGAGAGAAAGUGCUGCU | 0.498 ratio |
| AACUUUGCAUUUAAAGAGCAAAUCCAGGCCCACACUCUGUUCACGCCGCUGCUCAUUGGCUUUGUGGUUGCAGCUGGCGCGAUGGGGAUCAUUGUGAUGGUGCUCACCUACAAAUAUUUG | 0.216 ratio |
| CUGAAGAGUGUUUCUGAAAGAUCUAUCCAGCACUCCGAUGGCCAGCAACAACACCGCCAGCAUAGCACAAGCCAGGAAGCUGGUAGAGCAGCUUAAGAUGGAAGCCAAUAUCGACAGGAU | 0.115 ratio |
| ACUAAAAGCAAAUGGGGAACGAUCCCUCGGGGCCCAGCAUCUCAAUUUUAUAUAACUCCCAAUACAUCCCUAAGUCCUCGACAGAGUGGACCACAGUGGAAAGGCCCCAAAGCAACUGUU | 0.236 ratio |
| CAGACCUUUGUGCCCCUGUGCACAUUUGGAAGCUAAAAUGUACAUCGUUGUCUGAAAAAACCCAACCCCAAAACCUUCAUCUGAUUGGUGAGCUGAAGUCUGUCCUUGCACCAUGUUAUC | 0.354 ratio |
| GUGGGGCUGCUGGUGGGGGGCCUGAUCAAGGGUGUAGGCGAGACACCCCCCUUCCUGCAGUCCGACGUCUUCUUCCUCUUCCUGCUGCCGCCCAUCAUCCUGGAUGCGGGCUACUUCCUG | 0.209 ratio |
| CAGCUGUGUCUUCUAAAGUGGAUCAGUGAGAGAGGCUCCUGGACCUGCGAGCUGUGCUGUUAUAGAUACCACGUCACAGCCAUUAAAAUGAAGCAACCUUGCCAGUGGCAGAGCAUUUCU | 0.147 ratio |

Study 4 — technique: RNA Bind-n-Seq; form: RNA; sample: in vitro; concentration: 365 nM; reference: no-protein control; direction: higher = stronger binding
Target: RNA binding protein fox-1 homolog 2, RRM domain, GST-SBP tag (RBFOX2, Homo sapiens, UniProt O43251-10, residues 100-194)
Setting: natural RNA segment, single round, ends assumed
All sequences stand within: GGGAGUUCUACAGUCCGACGAUC … UGGAAUUCUCGGGUGCCAA
Target sequence (chain): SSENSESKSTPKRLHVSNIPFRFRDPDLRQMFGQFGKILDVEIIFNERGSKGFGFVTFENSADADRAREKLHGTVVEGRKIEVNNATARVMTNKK
| Oligonucleotide | RBNS enrichment (R) |
| --- | --- |
| GCUAAGUAGAAGCAGUCUCAGGCCUGCUGCUUGAGGCUGUUCUUGGCUUGGACCUGAAAUCUGCCCCCAACAGUGUCCAAGUGCACAUGACUUUGAGCCAUCUCCAGAGA | 0.981 |
| AGCACUGGACAGUACACUCUGGUGUACACACUUGCGCACACAUAUACACACACAAUAAUUUUUUAAACUCCAUAAAGUUAUUAACAUGUCAGCAGGCAGAGCAUUGCAGU | 0.65 |
| CCCACUGAAUUUUGUAACUUCCUGUGUUUGCAUCCUCUGUUCCUAUUCUGCCCUUGCUCUGUGUCAUCUCAGUCAUUUGACUUAGAAAGUGCCCUUCAAAAGGACCCUGU | 0.513 |
| UGGGAGCUGUGGGUCUCUGGCACCUGCUGCUGAUGGACGGCUGCCUGCAGCCCUUCUGCGCCCUGAGGGCUCUGCCAUCACCCACAGACCAGGCAAUCCUGGCCUGGUAC | 0.205 |
| GUGGCCCCUGAAGGUUGCUUUAAGGGGAAAGUAUGUUCUCAUGUCUUCACCCCUCCCUAGAUCUCACCUAAACAUGCUGUCCCUAAUAAAGCUGGAUAAGAAGCUGCUGU | 0.337 |
| AUCAAACUGUGGUGUAAAUAGAUCCUCAGUGAAUUCUGGUAUUCAGACUCUGUUCCACUAGUGAAUGAACCAUUUUCUAAACGUUUCCCUUUGACUUUUUUAUUUAUUGA | 0.868 |
| UCCCAGCGAAGGGGGACCGCCGUUUGCACUUUCAUCGCCUACCCCGACGCGGGGCCCAGCUGCGGGACGUGCAUCACGGCUGGGCCCCCAGAGGAGAGAGGAGGCCGACG | 0.35 |
| UCUGUUAAAAAGAGAAAUACACUCAGAAGACAUGGACUUGAGAAUCAGAAAGAAACUAAGAAAAAGGAUAAAAAUAUCCAAAGGAGUUACAUUUUGAGGAAAAAGAACAA | 0.261 |
| UUAUAGACCAACAGAAGAUUCCAAAGAAUUUUCAUGAGAUCAGCUAAGUUGCACCAACUUUGAAGUCUGAUUUUCCUGGACAGUUUUCUGCUUUAAUUUCAUGAAAAGAU | 0.392 |
| CCCAGGCUUUGUUUCCUUUGCUCGUGCCUUAUACUCACAUAUAUCCAAUAUAACCCAUGGUGUUAAGCGCAUCCCAUCCAAGGGAAGAAAGAACCCACUGCUCACAGCAC | 0.25 |
| AGGCCUUUGGCUUUUGACCCAGGAGGGCCGCGAGGCUGGAGCUGCCCUGUCUUUCAUUGAGCCUUAGCAUUUCCCUCUCAGGCUUCCUCUCAAGCUCAAGGAACUCACCC | 0.391 |
| UAGGUUUAGUGAGCAUUUCAUGUCAGGGAGCCUCUGGCCAGUGUCUCUGGGAGGUCACUAAUCUACCCCUGAGGUACCCACUCUUUCUGUCGUAGCUUUCUUCUAGGGCC | 0.274 |

Single results of other studies
| Molecule | target | assay | test system | setting | how to read | measurement | result |
| --- | --- | --- | --- | --- | --- | --- | --- |
| PhoQ, residues 284 288 289 292 302 303 SNSSNI | PhoP, residues 12 14 15 18 19 GQAIL (Escherichia coli, UniProt P23836) | Sort-seq, refers to: YFP reporter | E. coli | PhoQ-PhoP variant library, together with: 10 µM Mg2+ | reference: high Mg2+ state, higher = stronger signaling | fold induction | 6.97 |

Some of these lines once more (study 2):
| Oligonucleotide | log2 enrichment |
| --- | --- |
| CACAGACAACACGCACCCACACAGACACAGAGGGAAGGCGUUGGGAUGGGGACAGGGUGCACAGCAGGGCGGGGUAGGACCCCAGCCCCU | -0.791 |
| CCUCAAGUCCUGUGCUACACAUCGUAUGUACCGAAUCGGGUUGGUUGGGUUGGAAAGUAUUAUGUUACGCCGUUCGGAUCUGCACUUCCA | -0.802 |
| AGUCCUGUGCUACACAUCGUAUGUACCGAAUCGGGGAAAAGGGAAAAGGGGAAAAGGAAAGUAUUAUGUUACGCCGUUCGGAUCUGCACU | -0.908 |
| CAUCAAAAUAGCUACAAACCAUACUAAAUUAUUCCAUUUGCAACUUAUCCCCAACAGGUAUGUUCUAAAAAUAGUUUUUUUUUGUCAUUU | -0.45 |
| UAACUUUAAAGGAGGAUCUGAUGGAUAUGGCAGUGGACGUGGAUUUGGGGAUGGCUAUAAUGGGUAUGGAGGAGGACCUGGAGGUGGCAA | -1.34 |
